Results collected from several papers.
Lines come from different studies, so protocols differ. Values joined by “and” are separate records of one study, mostly repeats; a detail may differ.
nusB with NusE: Transcription antitermination protein NusB, with NusE (nusB, Bacillus subtilis, UniProt P54520)
HTR2A: 5-hydroxytryptamine receptor 2A (HTR2A, Homo sapiens, UniProt P28223)
gag-pol integrase: Gag-Pol polyprotein, integrase (gag-pol, Human immunodeficiency virus type 1 group M subtype B, UniProt P04585)
TGFBR2: TGF-beta receptor type-2 (TGFBR2, Homo sapiens, UniProt P37173)
HTR7: 5-hydroxytryptamine receptor 7 (HTR7, Homo sapiens, UniProt P34969)
HTR2C: 5-hydroxytryptamine receptor 2C (HTR2C, Homo sapiens, UniProt P28335)

Compound	target	test	test system	conditions	inhibition
O=C(Nc1cccc2c(=O)cc(-c3nnn[nH]3)oc12)c1ccc(OCCCCc2ccccc2)cc1	LRRC8A/LRRC8C (Homo sapiens, UniProt Q8IWT6+Q8TDW0, M48D/T48D)	ion current, whole-cell patch clamp	HCT LRRC8-/- cells	10 µM, +100 mV, T48D/M48D heteromers	4.72% and 0.627% and 3.06%
CCNC(=O)Nc1ccc(OC/C=C\COc2ccc(CC(=O)O)cc2)cc1	nusB with NusE	NusE binding, inhibitor, competitive ELISA	–	25 µM	17%
COc1cc2c(cc1OC)C(=O)C(CC1CCN(Cc3ccccc3)CC1)C2 (centres unmarked)	HTR2A	radioligand binding	–	concentration not given, added: [3H]ketanserin	29.7%
NC/C(=C\F)COc1cccc(Cn2c(=S)[nH]c(=O)c3[nH]cnc32)c1	Myeloperoxidase (MPO, Homo sapiens, UniProt P05164)	enzyme activity, Amplex Red	–	8.468e-05 µM	-11.8%
CC(C)c1noc2ncc(C(=O)c3ccccc3O)cc12	Sodium channel protein type 4 subunit alpha (SCN4A, Homo sapiens, UniProt P35499)	ion current, inhibitor, whole-cell patch clamp	–	10 µM	3.79% and 0.63% and 0.1% and 2.67% and 1.5%
COc1ccc(Cn2cc(-c3ccc4c(c3)OCO4)c3ccc(-c4ccc5ccccc5c4)nc32)cc1	gag-pol integrase	strand transfer, inhibitor	HIV-1	10 µM	24.1%
c1ccc(OC[C@@H]2CN(CCN3CCc4ccccc43)CCO2)cc1	HTR2A	radioligand binding	–	concentration not given, added: [3H]ketanserin	73.7%
O=[N+]([O-])O[C@@H]1CO[C@H]2[C@@H]1OC[C@@H]2O	Nedd8-cullin1 interaction	neddylation, AlphaScreen	–	100 µM	11.3%
CN(C(=O)n1cnc(-c2ccc[n+]([O-])c2)c1)C1CCCCC1	Type-2 angiotensin II receptor (AGTR2, Homo sapiens, UniProt P50052)	–	–	10 µM	-2.1%
CCN1CCN(Cc2ccc(NC(=O)c3ccc(C)c(/C=C/c4cnc5[nH]ccc5c4OC)c3)cc2C(F)(F)F)CC1	Serine/threonine-protein kinase Nek8 (NEK8, Homo sapiens, UniProt Q86SG6)	–	A-375	5 µM	-27.6%
O=c1oc(-c2ccco2)nc2ccccc12	Cathepsin G (CTSG, Homo sapiens, UniProt P08311)	enzyme activity, inhibitor, chromogenic substrate hydrolysis	–	concentration not given, pH 7.4, 37 °C	inhibited
COc1cccc(F)c1Cn1cnc(-c2ccc(F)cc2)c1-c1ccncc1	TGFBR2	inhibitor	–	1 µM	24%
N=C(N)NCCN1CCCCCCC1	Nedd8-cullin1 interaction	neddylation, AlphaScreen	–	100 µM	-41.3%
Cc1nn(-c2ccccc2)c(=O)c2nocc12	Metabotropic glutamate receptor 2 (GRM2, Homo sapiens, UniProt Q14416)	cAMP accumulation, antagonist	–	10 µM, added: glutamate 1 µM, forskolin	-33%
CC[C@@H]1[C@H](F)C(=O)N[C@@H]1COc1nccc2cc(C(N)=O)c(OC)cc12	Tyrosine-protein kinase Fer (FER, Homo sapiens, UniProt P16591)	ATP-site probe binding, ActivX profiling	THP-1 cell lysate	0.01 mM, Lys1 site	-9.6%
CCN1/C(=C/C(C)=O)Sc2ccc(F)cc21	Androgen receptor (Ar, Rattus norvegicus, UniProt P15207)	–	–	10 µM	1.93%
Cn1cc(-c2cc(C(F)(F)F)cc(C(F)(F)F)c2)c2ccc(Cl)nc21	gag-pol integrase	strand transfer, inhibitor	HIV-1	10 µM	48.3%
O=C(CN1CCO[C@H](COc2ccccc2)C1)N1CCc2ccccc21	HTR2A	radioligand binding	–	concentration not given, added: [3H]ketanserin	-11.3%
CCNC(=O)Nc1ccc(OC/C=C\COc2ccc(CC(N)=O)cc2)cc1	nusB with NusE	NusE binding, inhibitor, competitive ELISA	–	25 µM	13%

Compound	target	test	test system	conditions	inhibition
Cn1cc(-c2ccc3c(c2)OCO3)c2ccc(-c3ccncc3)nc21	gag-pol integrase	strand transfer, inhibitor	HIV-1	10 µM	71.3%
Cc1cc(-c2ccnc3[nH]cc(F)c23)cc(F)c1[C@@]1(O)[C@H](C)CN(C2CCS(=O)(=O)CC2)C[C@@H]1C	ROCK1 and ROCK2	ATP probe binding, KiNativ, measured: Lys2 site	HEK293T cell lysate	0.1 µM	-11.8%
O=C(CN1CCO[C@@H](COc2ccccn2)C1)N1CCc2ccccc21	HTR7	radioligand binding	–	concentration not given, added: [3H]LSD	-15.6%
CC12CC3CC(C)(C1)CC(N)(C3)C2	N-acyl-aromatic-L-amino acid amidohydrolase (carboxylate-forming) (Acy3, Mus musculus, UniProt Q91XE4)	inhibitor	–	concentration not given	no inhibition
Cc1ncc([N+](=O)[O-])n1C(=NO)c1ccccc1C(F)(F)F	kinase (MBP2 substrate)	–	–	10 µM	10.2%
CCNC(=O)Nc1ccc(OC/C=C\COc2ccc(C[C@H](NC(=O)OC(C)(C)C)C(=O)O)cc2)cc1	nusB with NusE	NusE binding, inhibitor, competitive ELISA	–	25 µM	35%
Oc1ccc(-c2nc(-c3ccncc3)c(-c3ccc(F)cc3)[nH]2)cc1	TGFBR2	inhibitor	–	1 µM	34%
O=C1c2ccccc2CCCN1CCCCN1CCN(c2ccccn2)CC1	HTR7	radioligand binding	–	concentration not given, added: [3H]LSD	98.4%
COc1cc(C(=O)NS(=O)(=O)c2ccccc2C)ccc1Cc1cn(C)c2ccc(NC(=O)OC3CCCC3)cc12	Volume-regulated anion channel subunit LRRC8C, part LRRC8A IL1 chimera (LRRC8C, Homo sapiens, UniProt Q8TDW0, L136K)	ion current, inhibitor, whole-cell patch clamp	HCT LRRC8-/- cells	3 µM, +100 mV	93.3% and 83.5% and 94.6% and 92.2% and 95.3% and 90.6% and 92.9%
Cc1ncccc1OC[C@H]1CN(CCN2CCc3ccccc32)CCO1	HTR7	radioligand binding	–	concentration not given, added: [3H]LSD	64.2%
O=C(NCCCNS(=O)(=O)c1ccc(OC(F)(F)F)cc1)C1=Cc2ccccc2S1(=O)=O	Tyrosine-protein phosphatase non-receptor type 2 (PTPN2, Homo sapiens, UniProt P17706)	enzyme activity	–	25 to 30 µM, phosphatase selectivity panel	no inhibition
COc1cccc(OC[C@@H]2CN(CCN3CCc4ccccc43)CCO2)c1	HTR7	radioligand binding	–	concentration not given, added: [3H]LSD	22.6%
CCOC(=O)c1cnn(-c2ccc(NC(=O)C(Cl)=C(Cl)Cl)cc2)c1C(F)(F)F	Short transient receptor potential channel 7 (Homo sapiens, UniProt Q9HCX4)	ion current, inhibitor, whole-cell patch clamp	–	10 µM, added: carbachol	inhibited
Fc1ccc(-c2c(-c3ccncc3)ncn2-c2ccc3ccccc3c2)cc1	TGFBR2	inhibitor	–	1 µM	36%
O=C(CN1CCO[C@@H](COc2cccnc2)C1)N1CCc2ccccc21	HTR2C	radioligand binding	–	concentration not given, added: [3H]mesulergine	44.2%
Cc1nn(-c2nc3c(F)cc(F)cc3s2)c(O)c1C(c1cccc(C(F)(F)F)c1)c1c(C)nn(-c2nc3c(F)cc(F)cc3s2)c1O	Cyclic GMP-AMP synthase, catalytic domain; with DNA (CGAS, Homo sapiens, UniProt Q8N884)	cGAS phase separation, inhibitor	–	12.5 µM	70.1%
O=C(O)c1cn(C2CC2)c2cc(N3CCNCC3)c(F)cc2c1=O	DNA gyrase subunit A (gyrA, Escherichia coli K-12, UniProt P0AES4)	enzyme activity, inhibitor, DNA supercoiling	–	0.01 µM	15.9%
O=C(NO)c1ccc(CN2CCCCc3ccccc32)c(F)c1	HTR2C	radioligand binding, PDSP radioligand binding	–	10 µM	10.7%
O=C(NO)c1cncc(OS(=O)(=O)Oc2ccc3ccccc3c2)c1	Histone deacetylase 4 (HDAC4, Homo sapiens, UniProt P56524)	–	–	10 µM	33%
